Measured values pooled from the literature.
Lines come from different studies, so protocols differ. Values joined by “and” are separate records of one study, mostly repeats; a detail may differ. ± marks the error that the study gave.
Chain of UniProt P27448 (whole entry, looked up): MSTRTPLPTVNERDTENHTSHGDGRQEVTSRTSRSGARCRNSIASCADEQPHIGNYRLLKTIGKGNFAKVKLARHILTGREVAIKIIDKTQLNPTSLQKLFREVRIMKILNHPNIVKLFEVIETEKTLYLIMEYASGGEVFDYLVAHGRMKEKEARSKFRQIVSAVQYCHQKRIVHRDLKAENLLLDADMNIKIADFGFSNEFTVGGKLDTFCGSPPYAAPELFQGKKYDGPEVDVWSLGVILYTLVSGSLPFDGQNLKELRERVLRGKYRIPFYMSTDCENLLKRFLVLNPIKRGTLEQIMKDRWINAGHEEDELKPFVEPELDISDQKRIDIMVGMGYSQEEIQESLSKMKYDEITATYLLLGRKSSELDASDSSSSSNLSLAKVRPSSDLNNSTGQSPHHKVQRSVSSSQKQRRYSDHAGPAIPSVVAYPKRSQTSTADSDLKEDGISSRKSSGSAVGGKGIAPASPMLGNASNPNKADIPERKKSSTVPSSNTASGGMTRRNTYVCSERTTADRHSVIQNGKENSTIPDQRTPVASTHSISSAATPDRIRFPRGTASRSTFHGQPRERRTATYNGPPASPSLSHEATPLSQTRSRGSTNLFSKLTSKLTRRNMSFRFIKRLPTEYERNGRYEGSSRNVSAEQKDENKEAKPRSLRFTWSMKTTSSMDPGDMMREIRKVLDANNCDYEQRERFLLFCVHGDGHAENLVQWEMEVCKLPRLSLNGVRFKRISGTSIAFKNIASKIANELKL
Chain of UniProt Q96PY6 (whole entry, looked up): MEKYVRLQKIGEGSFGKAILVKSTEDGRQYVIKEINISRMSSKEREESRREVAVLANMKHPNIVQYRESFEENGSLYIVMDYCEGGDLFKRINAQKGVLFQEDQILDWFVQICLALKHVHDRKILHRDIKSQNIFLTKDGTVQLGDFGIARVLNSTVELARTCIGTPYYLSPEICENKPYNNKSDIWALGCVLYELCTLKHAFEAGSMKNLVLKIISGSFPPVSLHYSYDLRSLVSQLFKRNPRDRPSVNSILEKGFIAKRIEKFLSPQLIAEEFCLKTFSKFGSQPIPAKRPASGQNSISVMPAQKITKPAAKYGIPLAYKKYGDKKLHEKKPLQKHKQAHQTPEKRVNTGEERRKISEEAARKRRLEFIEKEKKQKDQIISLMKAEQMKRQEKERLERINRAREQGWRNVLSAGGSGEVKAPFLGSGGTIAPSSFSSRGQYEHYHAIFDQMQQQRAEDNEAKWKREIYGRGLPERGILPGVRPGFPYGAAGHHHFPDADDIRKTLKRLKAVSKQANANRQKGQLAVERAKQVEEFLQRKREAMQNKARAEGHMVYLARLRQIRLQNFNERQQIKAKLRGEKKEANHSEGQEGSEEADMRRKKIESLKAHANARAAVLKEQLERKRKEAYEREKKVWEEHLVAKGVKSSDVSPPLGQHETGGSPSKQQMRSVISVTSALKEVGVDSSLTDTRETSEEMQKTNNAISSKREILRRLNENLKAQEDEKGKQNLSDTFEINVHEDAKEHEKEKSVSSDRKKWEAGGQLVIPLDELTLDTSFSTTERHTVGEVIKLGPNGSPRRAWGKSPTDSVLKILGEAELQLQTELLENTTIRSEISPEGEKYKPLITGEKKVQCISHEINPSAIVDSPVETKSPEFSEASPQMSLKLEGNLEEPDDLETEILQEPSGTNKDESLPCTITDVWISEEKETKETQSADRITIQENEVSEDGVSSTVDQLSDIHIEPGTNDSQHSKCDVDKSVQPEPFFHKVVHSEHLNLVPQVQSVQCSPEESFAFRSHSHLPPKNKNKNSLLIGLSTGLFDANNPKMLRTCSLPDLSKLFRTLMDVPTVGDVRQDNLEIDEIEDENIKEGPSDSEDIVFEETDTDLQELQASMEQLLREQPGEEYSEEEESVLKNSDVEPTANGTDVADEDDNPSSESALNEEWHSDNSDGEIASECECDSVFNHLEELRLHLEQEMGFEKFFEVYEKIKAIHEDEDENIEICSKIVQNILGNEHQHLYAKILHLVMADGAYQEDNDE
Chain of UniProt P08183 (whole entry, looked up): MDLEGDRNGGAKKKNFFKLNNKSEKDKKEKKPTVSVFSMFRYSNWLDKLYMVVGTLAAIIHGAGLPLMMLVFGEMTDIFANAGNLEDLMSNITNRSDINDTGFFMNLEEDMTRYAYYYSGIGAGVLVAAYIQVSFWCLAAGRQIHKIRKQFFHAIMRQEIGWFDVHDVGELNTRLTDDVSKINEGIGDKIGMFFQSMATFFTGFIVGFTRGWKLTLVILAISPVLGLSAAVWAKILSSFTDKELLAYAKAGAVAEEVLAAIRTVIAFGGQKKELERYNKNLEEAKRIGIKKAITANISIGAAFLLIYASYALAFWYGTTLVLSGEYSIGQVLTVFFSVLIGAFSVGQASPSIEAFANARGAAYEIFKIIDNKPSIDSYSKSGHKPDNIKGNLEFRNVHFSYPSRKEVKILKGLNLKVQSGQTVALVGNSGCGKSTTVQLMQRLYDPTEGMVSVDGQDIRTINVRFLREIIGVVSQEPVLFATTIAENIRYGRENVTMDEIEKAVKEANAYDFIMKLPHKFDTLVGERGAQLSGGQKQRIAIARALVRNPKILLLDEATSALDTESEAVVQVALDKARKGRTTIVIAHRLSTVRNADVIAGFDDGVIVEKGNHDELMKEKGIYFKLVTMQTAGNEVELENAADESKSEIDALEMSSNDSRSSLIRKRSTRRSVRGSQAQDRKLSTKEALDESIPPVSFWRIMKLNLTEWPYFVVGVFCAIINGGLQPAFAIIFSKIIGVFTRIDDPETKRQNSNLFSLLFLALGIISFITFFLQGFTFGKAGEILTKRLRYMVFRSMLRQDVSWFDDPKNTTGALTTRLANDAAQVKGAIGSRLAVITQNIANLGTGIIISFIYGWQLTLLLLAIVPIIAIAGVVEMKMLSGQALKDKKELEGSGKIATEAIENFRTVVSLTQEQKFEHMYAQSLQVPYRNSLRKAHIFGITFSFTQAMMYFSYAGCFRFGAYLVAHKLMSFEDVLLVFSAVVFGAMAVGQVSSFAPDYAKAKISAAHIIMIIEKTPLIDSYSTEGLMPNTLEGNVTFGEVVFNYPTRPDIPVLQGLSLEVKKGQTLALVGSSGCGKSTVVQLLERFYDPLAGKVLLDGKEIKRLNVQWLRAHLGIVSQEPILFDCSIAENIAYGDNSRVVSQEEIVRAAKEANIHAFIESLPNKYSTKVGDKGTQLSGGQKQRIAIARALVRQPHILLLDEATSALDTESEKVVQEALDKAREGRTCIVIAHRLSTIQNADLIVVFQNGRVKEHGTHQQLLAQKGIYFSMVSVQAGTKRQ

| SMILES | target or system | assay | test system | conditions | how to read | endpoint | result |
| --- | --- | --- | --- | --- | --- | --- | --- |
| C1=Cc2nc1cc1ccc([n-]1)c(-c1ccccc1)c1nc(cc3ccc([n-]3)c2-c2ccccc2)C=C1.CC(=O)[O-].[Mn+3] | – | LC-MS/MS | Sprague-Dawley rat, plasma | oral gavage, dose not given, 360 min | – | plasma concentration | 94 ng/mL and 135 ng/mL |
| [2H]C([2H])([2H])C1(C([2H])([2H])[2H])NC(=O)N(c2ccc(F)c(C(F)(F)F)c2)C1=O | – | – | male Swiss outbred mice, plasma | oral, 100 mg/kg, 24 h | – | plasma concentration | 38400 ± 3010 ng/mL |
| CCCc1cc(O)c(C/C=C(\C)CCC=C(C)C)c(O)c1 | – | LC-MS/MS | Scn1a+/− mouse, plasma | intraperitoneal, 10 mg/kg, after hyperthermia protocol | – | plasma concentration | 807 ± 182 ng/mL |
| Cc1ccc(S(=O)(=O)n2c(N)nc3ccccc32)cc1 | – | – | mouse, plasma | intraperitoneal, 15 mg/kg, 120 min | – | plasma concentration | 120 ± 50 nM |
| NC(=O)c1cccc(-c2cc(OC(=O)NC3CCCCC3)ccc2O)c1 | – | – | mouse, plasma | oral, 10 mg/kg, 24 h | – | plasma concentration | 1.1 ng/mL |
| COCCN(CCOC)N=O | Salmonella typhimurium | mutagenicity, Ames plate incorporation | TA98 | 1500 µg/plate, 3 d, without S9, methanol | – | revertant colonies per plate | 29 ± 10 |
| CN(C)C1(CNC(=O)c2ccc3c(c2)CCN3C(=O)c2ccccc2)CCOCC1 | – | – | male C57BL/6 mice | intraperitoneal, 50 mg/kg, 120 min | – | plasma concentration | 133 ng/mL |
| CCN(CC)CCCC[C@H](NC(=O)[C@H](CC(C)C)NC(=O)[C@H](C)NC(=O)[C@H](Cc1ccccc1)NC(=O)c1ccc(C(C)(C)C)cc1)C(=O)N[C@@H](CO)C(=O)OC | – | – | male Swiss Albino mice, plasma | intraperitoneal, 10 mg/kg, 0.25 h | – | plasma concentration | 298 ng/mL |
| Cc1ccc(F)c2cc(C(=O)N[C@@H]3CCC[C@H](N4CC[C@H](N(C)S(C)(=O)=O)C4)C3)[nH]c12 | – | – | CD1 mouse, plasma | intravenous, 1 mg/kg, 7 h | – | plasma concentration | 6.73 ng/mL |
| CC[C@H](C)[C@@H]1NC(=O)[C@@H]2CCCN2C(=O)[C@H](CC(C)C)NC(=O)[C@H](CC(C)C)NC(=O)CNC(=O)[C@@H](NC(=O)[C@@H](NC(=O)[C@H](CC(=O)O)NC(=O)CNC(=O)[C@@H](NC(=O)[C@H](C)NC(=O)CNC(=O)[C@H](CCCCN)NC(=O)[C@H](CC(C)C)NC(=O)[C@H](CC(C)C)NC(=O)[C@H](CCCCN)NC(=O)CNC(=O)[C@@H](NC(=O)[C@@H](N)CC(C)C)C(C)C)C(C)C)C(C)C)CSSC[C@@H](C(=O)O)NC1=O | – | RNA-seq, measured: Tssk6 | mouse, traumatic brain injury model, frontal cortex and hippocampus | dose not given | reference: TBI alone | log2 fold change | -2.06 |
| COc1ccc(N2C(=O)N(c3c(C)cccc3Cl)Cc3cnc(Nc4ccc(C5CCN(C)CC5)cc4OC)nc32)nc1 | MARK3 (Homo sapiens, UniProt P27448) | kinase activity | – | 0.5 µM | – | inhibition | 32% |
| CCCCCc1cc(O)c(C/C=C(\C)CCC=C(C)C)c(O)c1C(=O)O | – | LC-MS/MS | Scn1a+/− mice, both sexes, plasma | intraperitoneal, 100 mg/kg, after hyperthermia protocol | – | plasma concentration | 73000 ± 10000 ng/mL |
| C1=Cc2nc1cc1ccc([n-]1)c(C1CC1)c1nc(cc3ccc([n-]3)c2C2CC2)C=C1.CC(=O)[O-].[Mn+3] | – | LC-MS/MS | Sprague-Dawley rat, plasma | oral gavage, dose not given, 240 min | – | plasma concentration | 264 ng/mL and 622 ng/mL |
| Cc1ccccc1C(=O)NN=Cc1ccc(O)c(Br)c1 | – | – | normal C3H/HeN mouse, plasma | intravenous, 0.8 mg/kg, 30 min | – | plasma concentration | 72.5 ng/mL |
| C[C@H]1CN(c2n[nH]c3nc(N[C@H]4CC[C@H](NS(=O)(=O)CCC(F)(F)F)CC4)ncc23)CCO1 | NEK1 (Homo sapiens, UniProt Q96PY6) | inhibitor, Kinobeads competition profiling | – | 0.8 µM | reference: vehicle | relative abundance | 1.01 |
| C=C(C)[C@@H]1CCC(C)=C[C@H]1c1c(O)cc(CCC)cc1O | – | LC-MS/MS | Scn1a+/− mice, both sexes, plasma | intraperitoneal, 60 mg/kg, after hyperthermia protocol | – | plasma concentration | 4000 ± 600 ng/mL |
| COc1c(CCC[P+](c2ccccc2)(c2ccccc2)c2ccccc2)cc2c(c1OC)OCO2.[I-] | HOP-62 | SRB | – | – | – | GI50 | -5.47 log M |
| C=C(C)[C@@H]1CCC(C)=C[C@H]1c1c(O)cc(CCC)c(C(=O)O)c1O | – | LC-MS/MS | Scn1a+/− mice, plasma | intraperitoneal, 10 mg/kg, after hyperthermia protocol | – | plasma concentration | 9000 ± 2000 ng/mL |
| CC(C)CC(=O)OC[C@H]1O[C@@](C#N)(c2ccc3c(N)ncnn23)[C@H](O)[C@@H]1O | ABCB1 (Homo sapiens, UniProt P08183) | – | Caco-2 monolayer | 0.9 µM, 2 h, apical to basolateral, added: zosuquidar 25 µM | – | recovery | < 40% |

Repeated from above:
| SMILES | target or system | assay | test system | conditions | how to read | endpoint | result |
| --- | --- | --- | --- | --- | --- | --- | --- |
| CCCc1cc(O)c(C/C=C(\C)CCC=C(C)C)c(O)c1 | – | LC-MS/MS | Scn1a+/− mouse, plasma | intraperitoneal, 10 mg/kg, after hyperthermia protocol | – | plasma concentration | 807 ± 182 ng/mL |
| Cc1ccc(S(=O)(=O)n2c(N)nc3ccccc32)cc1 | – | – | mouse, plasma | intraperitoneal, 15 mg/kg, 120 min | – | plasma concentration | 120 ± 50 nM |
| NC(=O)c1cccc(-c2cc(OC(=O)NC3CCCCC3)ccc2O)c1 | – | – | mouse, plasma | oral, 10 mg/kg, 24 h | – | plasma concentration | 1.1 ng/mL |
